Experimental data of several laboratories.
Compare with care: the assays were run in different laboratories. ± gives the spread as reported. ≈ marks a conversion by molar mass, not a printed value.

SMILES | test system | conditions | scale | quantity | result
C=C/C=C/C[C@@H](C)[C@@H](O)[C@H]1C(=O)N[C@@H](CC)C(=O)N(C)CC(=O)N(C)[C@@H](CC(C)C)C(=O)N[C@@H](C(C)C)C(=O)N(C)[C@@H](CC(C)C)C(=O)N[C@@H](C)C(=O)N[C@H](C)C(=O)N(C)[C@@H](CC(C)C)C(=O)N(C)[C@@H](CC(C)C)C(=O)N(C)[C@@H](C(C)C)C(=O)N1C | Wistar Kyoto rat, male, plasma | ip, 0.5 mg/kg/day, day 18 | – | plasma Na+ level, median | 142 mmol/L
CN1Cc2cc(Cl)ccc2-n2c(nnc2C2CCN(c3cccc([18F])n3)CC2)C1 | C57BL/6 mouse male, stomach | intravenous, 3.7 MBq, 60 min | – | tissue uptake | 9.48 ± 1.63 %ID/g
CN[C@H](CC(C)C)C(=O)N[C@H]1C(=O)N[C@@H](CC(N)=O)C(=O)N[C@H]2C(=N)N[C@H]3C(=O)N[C@H](C(=O)N[C@H](C(=O)NCCCNC(=N)N)c4cc(O)cc(O)c4-c4cc3ccc4O)[C@H](O)c3ccc(c(Cl)c3)Oc3cc2cc(c3O[C@@H]2O[C@H](CO)[C@@H](O)[C@H](O)[C@H]2O[C@H]2C[C@](C)(NCc3ccc(-c4ccc(Cl)cc4)cc3)[C@H](O)[C@H](C)O2)Oc2ccc(cc2Cl)[C@H]1O | mouse | intravenous, 25 mg/kg | – | volume of distribution | 0.21 L/kg
N#Cc1ccc(N2N=C(c3ccc(C(=O)O)cc3)CC2C2CCCC2)cc1Cl (stereo not shown) | PBS | 90 min | – | kinetic solubility | 32 µM (≈ 12.6 µg/mL)
O=C1NC2(CC2)COc2ncc(F)cc2[C@H]2COCCN2c2ccn3ncc1c3n2 | Sprague-Dawley rat, female, adrenals | oral, 5 mg/kg/day, 4 weeks dosing, end of recovery | – | organ-to-body weight ratio | 0.027 ± 0.006%
CC(C)[C@@H]1NC(=O)CNC(=O)[C@H](CC(N)=O)NC(=O)[C@H](CCCNC(=N)N)NC(=O)[C@H](Cc2ccc(O)cc2)NC(=O)[C@H](C(C)C)NC(=O)[C@@H](NC(=O)[C@@H](NC(=O)[C@H](CC(N)=O)NC(=O)[C@H](Cc2c[nH]c3ccccc23)NC(=O)[C@H](C)NC(=O)[C@H](Cc2ccccc2)NC(=O)CNC(=O)[C@H](CCCCN)NC(=O)[C@H](Cc2ccccc2)NC(=O)[C@H](Cc2ccccc2)NC(=O)[C@H](CCCCN)NC(=O)OCC2c3ccccc3-c3ccccc32)C(C)C)CSSC[C@@H](C(=O)N[C@@H](Cc2c[nH]cn2)C(=O)N[C@@H](CCCNC(=N)N)C(=O)N[C@@H](CCCNC(=N)N)C(=O)N[C@@H](C)C(=O)N[C@@H](CC(N)=O)C(N)=O)NC(=O)[C@H](C(C)C)NC(=O)[C@H](CCCNC(=N)N)NC1=O | ICR mouse | ip, 10 mg/kg | direction not given | lachrymation score | 0
C=Cc1c(C)c2cc3nc(c(CC(=O)O)c4[nH]c(cc5nc(cc1[nH]2)C(C)=C5CC)c(C)c4C(=O)O)[C@@H](CCC(=O)NCCCC[C@H](NC(C)=O)C(=O)N[C@@H](Cc1ccccc1)C(=O)N[C@@H](Cc1ccccc1)C(=O)N[C@H](C(=O)N[C@@H](CC(C)C)C(=O)N[C@@H](CCCCN)C(=O)N[C@@H](CO)C(=O)NCC(=O)N[C@@H](CCC(N)=O)C(=O)N[C@@H](Cc1ccc(O)cc1)C(=O)N[C@@H](C)C(=O)N[C@@H](CO)C(=O)N[C@@H](Cc1ccc(O)cc1)C(=O)N[C@@H](Cc1c[nH]cn1)C(=O)N[C@@H](CS)C(=O)N[C@@H](Cc1c[nH]c2ccccc12)C(=O)N[C@@H](CS)C(=O)N[C@@H](Cc1c[nH]c2ccccc12)C(=O)N[C@@H](CCCNC(=N)N)C(=O)N[C@@H](CC(=O)O)C(=O)N1CCC[C@H]1C(=O)NCC(=O)N[C@@H](CCCNC(=N)N)C(=O)N[C@@H](CO)C(=O)NCC(=O)NCC(=O)N[C@@H](CO)C(=O)N[C@@H](CCCCN)C(N)=O)C(C)C)[C@@H]3C | mouse, blood | 3 h | – | blood concentration | 113 µg/mL
C=Cc1c(C)c2cc3nc(c(CC(=O)[O-])c4[n-]c(cc5nc(cc1[n-]2)C(C)=C5CC)c(C)c4C(=O)[O-])C(CCC(=O)[O-])C3C.[Cu+2].[Na+].[Na+].[Na+] (stereo not shown) | Wistar rat, male | oral, 250 mg/kg daily, 28 days | – | haemoglobin | 14.8 ± 1.37 g/dL
CNCCNC(=O)[C@@H]1NC(=O)[C@@H]2Cc3ccc(cc3)Oc3cc4cc(c3O)-c3ccc5c(c[nH]c5c3)C[C@@H](NC(=O)C(N)c3ccc(O)cc3)C(=O)N[C@H](c3ccc(O)cc3)C(=O)N[C@H]4C(=O)N[C@@H](C(=O)N2C)c2ccc(cc2)Oc2cc1ccc2O (stereo partly shown) | saline | 24 h, 25 °C | – | thermodynamic solubility | 8.3 µg/mL (≈ 7.05 µM)
CCCCCCCCCCCCCCCC(=O)N[C@@H](CCCNC(=N)N)C(=O)N[C@@H](Cc1c[nH]c2ccccc12)C(=O)N[C@@H](CCCCN)C(=O)N[C@H](C(=O)N[C@@H](Cc1ccccc1)C(=O)N[C@@H](CCCCN)C(=O)N[C@@H](CCCCN)C(=O)N[C@H](C(=O)N[C@@H](CCC(=O)O)C(=O)N[C@@H](CCCCN)C(=O)N[C@H](C(=O)NCC(=O)N[C@@H](CCC(N)=O)C(=O)N[C@@H](CC(N)=O)C(=O)N[C@H](C(=O)N[C@@H](CCCNC(=N)N)C(=O)N[C@@H](CC(=O)O)C(=O)NCC(=O)N[C@H](C(=O)N[C@H](C(=O)N[C@@H](CCCCN)C(=O)N[C@@H](C)C(=O)NCC(=O)N1CCC[C@H]1C(=O)N[C@@H](C)C(=O)N[C@H](C(=O)N[C@@H](C)C(=O)N[C@H](C(=O)N[C@H](C(=O)NCC(=O)N[C@@H](CCC(N)=O)C(=O)N[C@@H](C)C(=O)N[C@@H](C)C(=O)N[C@H](C(=O)N[C@H](C(N)=O)[C@@H](C)CC)[C@@H](C)O)C(C)C)C(C)C)C(C)C)C(C)C)[C@@H](C)CC)[C@@H](C)CC)C(C)C)[C@@H](C)CC)[C@@H](C)CC | mouse erythrocytes | 32 µM, 1 h, 37 °C | – | hemolysis | ~30%
Cc1ccccc1-c1ccc(-c2nc(-c3ccc(CN(C)CCCC(=O)O)c([18F])c3)no2)cc1C(F)(F)F | rat, muscle | 30 min | – | tracer uptake | 0.14 %ID/g
CCCC[C@H]1C(=O)N(C)[C@@H](CCCC)C(=O)N[C@@H](CCCNC(=O)CN2CCN(CC(=O)O)CCN(CC(=O)O)CCN(CC(=O)O)CC2)C(=O)N[C@H](C(=O)NCC(N)=O)CSCC(=O)N[C@@H](Cc2ccc(O)cc2)C(=O)N(C)[C@@H](C)C(=O)N[C@@H](CC(N)=O)C(=O)N2CCC[C@H]2C(=O)N[C@@H](Cc2c[nH]cn2)C(=O)N[C@@H](CC(C)C)C(=O)N(C)CC(=O)N[C@@H](Cc2c[nH]c3ccccc23)C(=O)N[C@@H](CO)C(=O)N[C@@H](Cc2c[nH]c3ccccc23)C(=O)N1C [gallium-68 labelled] | NOD/SCID mice, CHO-hPD-L1 xenograft, pancreas | 60 min, together with: blocking agent 50 µg co-injected | – | tissue uptake | 3.24 ± 0.38 %ID/g
CCCCCC[C@H]1C(=O)O[C@H](C)[C@H](NC(=O)c2cccc(NC=O)c2O)C(=O)O[C@@H](C)[C@@H]1OC(=O)CC(C)C | BALB/c mouse | 10 (unit not given) | – | LD50 | 6.13 mg/kg

Excerpt of the above:
SMILES | test system | conditions | scale | quantity | result
Cc1ccccc1-c1ccc(-c2nc(-c3ccc(CN(C)CCCC(=O)O)c([18F])c3)no2)cc1C(F)(F)F | rat, muscle | 30 min | – | tracer uptake | 0.14 %ID/g
